Published values of several laboratories.
Parts stem from different laboratories: compare values within a part only. Substitutions count along the parent as printed.

Sample 1
Target: RNA binding protein fox-1 homolog 2, RRM domain, GST-SBP tag (RBFOX2, Homo sapiens, UniProt O43251-10, residues 100-194)
Method: RNA Bind-n-Seq
Molecule type: RNA
Matrix: in vitro
Concentration: 365 nM
Notes: natural RNA segment, single round, ends assumed
Baseline: no-protein control
Direction: higher = stronger binding
Shared flanks, not repeated: GGGAGUUCUACAGUCCGACGAUC … UGGAAUUCUCGGGUGCCAA
| Oligonucleotide | RBNS enrichment (R) |
| --- | --- |
| UGGUGAAAGGAAAAUUGCUGGAGGAGGAAGUGCAGGCUCAGACCCAGUCAGUACAAAUGGAAAAGGUCCCACACUGGAACUGGCCGGAACUGGAAGCAGGGGAGGUACGA | 0.578 |
| UGGAGCUGGCUCCCGGACCUUGCCCACCAUCCAUGCAGUGGCUCCCAGGGCAGAGCCUCUCCUUGUACUUUGGCAGCCAUAGAAAGCGUGCUCAUUUUCUGUUUUCCUGU | 0.922 |
| CAGGGGCUUGGCUGCCCCAUUCCAGCUCUCCCAUGGAGCCCCUCCACCGGGCGCAUGCCUCCCAGGCCACCUCAGUCUCACCUGCCGGCUCUGGGCUGGCUGCUCCUAAC | 0.587 |
| CAUUUUUACUAAUCCUAAUACUCUGCUCUAGCUUGCUUCAGAACUCCCGUGGCUUUGCUUGAUCUGUUGUUGCUUCUCCUCAUCAAGACUUUGCAUCAUGUUAGCCAGCC | 0.766 |
| CACUGGCUAAUAGAGUACAUAAUUUUUCCAUUUUCCAUUUUUUGUUUUUACUUACUACUGAAGGAUCUCAGAUGUAAAAUUAUGUAUUUGGUUUGAGAUGGCCACUUAUU | 0.582 |
| AAAUUAAAUAAAUUAUAGAAUGUAGUUGGGUGGAUUUUGGGGUGGCCAUAUAGUAAUGGAAAGCUGCAAUAAUUAGUUUUAAUACAGCUUGAAUAUUUGCUAUAUAGAAA | 0.636 |

Sample 2
Target: RING finger protein unkempt homolog, zinc fingers 1-6, GST-SBP tag (UNK, Homo sapiens, UniProt Q9C0B0, residues 30-357)
UniProt Q9C0B0, sequence (30-357, looked up): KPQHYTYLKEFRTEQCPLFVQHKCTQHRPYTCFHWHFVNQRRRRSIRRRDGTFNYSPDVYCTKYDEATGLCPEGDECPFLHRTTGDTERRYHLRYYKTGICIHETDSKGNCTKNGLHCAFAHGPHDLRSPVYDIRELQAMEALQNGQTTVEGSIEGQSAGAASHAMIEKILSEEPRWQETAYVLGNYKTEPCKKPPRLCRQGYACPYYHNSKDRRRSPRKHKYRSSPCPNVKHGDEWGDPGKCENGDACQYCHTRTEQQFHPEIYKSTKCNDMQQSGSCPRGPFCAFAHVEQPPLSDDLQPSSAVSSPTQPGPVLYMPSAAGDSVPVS
Method: RNA Bind-n-Seq
Molecule type: RNA
Matrix: in vitro
Concentration: not given
Notes: RNA with constant flanks, human and mouse sites, ends assumed
Baseline: input RNA pool
Direction: higher = stronger binding
Shared flanks, not repeated: GGGAGUUCUACAGUCCGACGAUC … CAACAGAGGAUUGAGCAUCA
| Oligonucleotide | bound/input enrichment [ratio] |
| --- | --- |
| GGGAUCCAGCAAGGCCUUCUCAGCCAGUCAACACGCACAGCCACCUUCCAGCAGAGAUUUGAUGCCCGGCAGAAGAUUGGCCUCUCAGAUGCCCGGCUCAAACUGGGAGUCAAGGAUGCC | 0.218 |
| GCUGUGCUGGGGAACCAGAUUUUUAUUAUGGGGGGUGAUACAGAAUUCUCUGCCUGCUCUGCUUAUAAAUUCAACAGUGAGACUUACCAGUGGACCAAGGUGGGAGAUGUGACAGCAAAG | 0.683 |
| CACAUAAAAGCAAUUCAGAUUAAGGAGCAGCUCCUUGGCCAAGAAGAUUAUGAAGUGGCCCUUUCAGUGGGACACCUGGCAUCUCUGUAUAAUUAUGACAUGAAUCAGUAUGAAAAUGCU | 0.233 |
| CGUUCCUUACGAAUUGGAGCUAAUCGGCGCACAGAAAUUAUAGAAGAUUUGGCCUUCUACUCUAGUACAGUAGUAUCUCUAUUGAUGACCUGUGUAGAAAAAGCAGGAACAGAUGAGAAA | 0.722 |
| AGUUUCCUGCAGUAGGAGGGCAGAUGACUGGCAUCCUUGCUGUAAGGAAGAGCUUUUUCCUUGUGAAUGGGCCUCUUGGCUGUACCCUAGGGUGUGGGAAUUUGCUAGAGUUCCCUGACC | 0.102 |
| AAGGGCAACUAUUCGGAGCGCGUGGGCGCCGGCGCCCCGGUCUAUCUGGCCGCGGUGCUCGAGUACUUGACUGCCGAGAUCCUGGAGCUUGCCGGCAACGCGGCGCGCGACAACAAGAAG | 0.151 |
| UUCAGGACUUUUCUUGGGGUUUCAGAAUGGGUUUAUAUGAUUUUCUUUAUUAUUUUUUGGUAGUUUUAUUUAUUCUAUCAGUCUUUUUAACAAAUGUUUAUUGCUGCACCUCCUCCCCAG | 26.5 |

Sample 3
Target: CCND3, cyclin fold, Cln2 fusion (human)
Method: yeast growth competition, sequencing
Matrix: yeast
Notes: weak parent motif
Baseline: not given
Direction: higher = stronger binding
Parent: PKN2 docking peptide (human); VSAVQKLDFSDTM; partner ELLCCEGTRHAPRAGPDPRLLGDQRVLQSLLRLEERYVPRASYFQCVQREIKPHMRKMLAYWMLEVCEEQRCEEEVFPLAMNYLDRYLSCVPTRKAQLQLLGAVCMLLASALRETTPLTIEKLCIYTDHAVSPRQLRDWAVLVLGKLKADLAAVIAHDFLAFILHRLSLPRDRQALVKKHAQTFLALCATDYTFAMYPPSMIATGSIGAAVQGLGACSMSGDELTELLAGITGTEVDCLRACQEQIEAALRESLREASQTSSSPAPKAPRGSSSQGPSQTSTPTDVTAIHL
| Substitution | normalised enrichment score |
| --- | --- |
| T12D | 0.115 |
| V4C | 0.0837 |
| F9A | 0.115 |
| T12R | 0.11 |

Mixed results
| Substance | target | assay | test system | setting | scale | quantity | value |
| --- | --- | --- | --- | --- | --- | --- | --- |
| PhoQ, residues 284 288 289 292 302 303 TTCLQL | PhoP, residues 12 14 15 18 19 LYHSL (Escherichia coli, UniProt P23836) | Sort-seq, item: YFP reporter | E. coli | PhoQ-PhoP variant library, with: 10 µM Mg2+ | baseline: high Mg2+ state, higher = stronger signaling | fold induction | 3.23 |

A few entries again (sample 2):
| Oligonucleotide | bound/input enrichment [ratio] |
| --- | --- |
| CACAUAAAAGCAAUUCAGAUUAAGGAGCAGCUCCUUGGCCAAGAAGAUUAUGAAGUGGCCCUUUCAGUGGGACACCUGGCAUCUCUGUAUAAUUAUGACAUGAAUCAGUAUGAAAAUGCU | 0.233 |
